# Experimental data pooled from the literature.
# Protocols differ between the studies behind these lines. ± gives the spread as reported.
# Cell line: HepG2
Compound,test,conditions,IC50
[Cl][Pd-2]1([Cl])[N+](=Cc2ccc[nH]2)Cc2cccc[n+]21,"cell growth or viability, MTT",24 h,13 µg/mL
CC(=O)OC[C@]1(C)CCC[C@]2(CO)[C@@H]1CC[C@@]13C[C@@H](C[C@H](O)[C@H]12)[C@H](C)C3=O,"cell growth or viability, MTT",,> 20 µM
COC1=C(OC)C(O)C(CC=C(C)CCC=C(C)CCC=C(C)C(=O)O)C(C)C1=O (stereo not drawn),"cell growth or viability, MTS",72 h,> 25 µM
O=C1CS/C(=N\N=C2/C(=O)N(CCn3ncc4c(=O)[nH]cnc43)c3ccc(Cl)cc32)N1,"cell growth or viability, SRB",72 h,5.37 µM
C/C(=N\N=C(SCc1ccccc1)SCc1ccccc1)c1ccc(S(=O)(=O)N2CCC(C)CC2)cc1,"cell growth or viability, MTT",,24.4 µM
Brc1ccc(C(c2c[nH]c3ccccc23)c2c[nH]c3ccccc23)cc1,"cell growth or viability, MTT",24 h,5.24 µM
NC(=O)c1cccnc1.O=c1[nH]cc(F)c(=O)[nH]1.O=c1[nH]cc(F)c(=O)[nH]1.O=c1[nH]cc(F)c(=O)[nH]1,"cell growth or viability, MTT",,3.43 µM
Fc1ccc2[nH]c(-c3cc4cc5c(cc4nc3Cl)OCO5)nc2c1,"cell growth or viability, MTT",48 h,> 100 µM
CCCCCCCCSc1nc(N)c2c(F)c(C#N)c(F)c(F)c2n1,"cell growth or viability, MTT",96 h,> 100 µM
COc1cc([C@@H]2OC[C@@H]3[C@H]2CO[C@H]3c2cc(OC)c(O)c(OC)c2)cc(OC)c1O,"cell growth or viability, CCK-8",24 h,> 50 µM
COc1ccc(OC)c(C(c2c[nH]c3ccccc23)c2c[nH]c3ccccc23)c1,"cell growth or viability, MTT",24 h,6.23 µM
COC1=CC(c2ccc[nH]2)=NC12OC(C)CC1CCCCCCCc3ccc([nH]3)C12 (stereo not drawn),cell growth or viability,,4.17 µM
COc1cc(/C=N/NC(=O)c2cc3cc(Nc4nccc(-c5cccnc5)n4)ccc3[nH]2)cc(OC)c1,"cell growth or viability, MTT",48 h,7.66 µM
CC1(C)[C@@H](O)CC[C@]2(C)[C@H]3C(=O)C=C4[C@@H]5C[C@@](C)(C(=O)O)CC[C@]5(C)CC[C@@]4(C)[C@]3(C)CC[C@@H]12,"cell growth or viability, MTT",,> 40 µM
CC(=O)N[C@@H]1[C@@H](OC(C)=O)[C@H](OC(C)=O)[C@@H](COC(C)=O)O[C@H]1Sc1nnc(-c2cc3ccccc3[nH]2)n1-c1ccccc1,"cell growth or viability, MTT",,≥ 50 µM
COc1cc2c(cc1-c1coc3c(CC=C(C)C)c(OC)c(OC)cc3c1=O)OCO2,"cell growth or viability, MTT",72 h,16 µM
NC(=S)NNC(=O)c1cc2ccccc2oc1=O,"cell growth or viability, SRB",72 h,17.7 µM
CCn1cc(/C=C/c2sc3ccccc3[n+]2CC)c2ccccc21,"cell growth or viability, MTT",24 h,9.34 µM
CCN1C(=O)CS/C1=N/N=C(\C)c1c(O)c2ccccc2oc1=O,"cell growth or viability, MTT",48 h,93.8 µM
O=[N+]([O-])[O-].O=[N+]([O-])[O-].[Cu+2].[Cu+2].c1ccc(-c2nc(-c3ccc4c(c3)OCO4)n[n-]2)nc1.c1ccc(-c2nc(-c3ccc4c(c3)OCO4)n[n-]2)nc1,"cell growth or viability, MTT",24 h,3.58 µM
N#Cc1cccc(-c2ccc(=O)n(Cc3cccc(-c4ncc(OCC5CCN(CC(=O)NCCOCCNc6ccc7c(c6)C(=O)N(C6CCC(=O)NC6=O)C7=O)CC5)cn4)c3)n2)c1 (stereo not drawn),"cell growth or viability, CCK-8",72 h,1.54 µM
O=C(/C=C/c1ccc(O)cc1)OCCCC[P+](c1ccccc1)(c1ccccc1)c1ccccc1,"cell growth or viability, SRB",48 h,15.3 µM
O=C(Nc1ccccc1O)c1ccc(-c2ccc(Cl)cc2Cl)o1,"cell growth or viability, MTT",,6.98 µM
N#Cc1cccc(-c2ccc(=O)n(Cc3cccc(-c4ncc(OCC5CCN(CCCCCCCCCC(=O)Nc6cccc7c6C(=O)N(C6CCC(=O)NC6=O)C7=O)CC5)cn4)c3)n2)c1 (stereo not drawn),"cell growth or viability, CCK-8",72 h,> 100 µM
O=C(Cc1ccccc1)NC(=S)n1c(-c2ccccc2)nc2ccccc21,"cell growth or viability, MTT",48 h,56.6 µM
CCOc1cccc(/C=N/c2ccccc2Nc2ccccc2)c1O,"cell growth or viability, MTT",48 h,71.2 µM
Cc1cc(=O)oc2cc(OCC(=O)NCC(=O)NCC(=O)NN)ccc12,"cell growth or viability, MTT",,172 µM
O=C(NCCc1ccccc1)c1ccccc1-n1c(=O)[nH]c2ccccc2c1=O,"cell growth or viability, MTT",24 h,14.4 µM
CCOC(=O)CS/C(Nc1ccccc1)=C(\C#N)C(=O)Nc1nnc(NC(=O)c2ccccc2)s1,"cell growth or viability, MTT",48 h,52.9 µM
Cc1cc(C#N)cc(C)c1Oc1cc(Nc2ccc(C#N)cn2)nc2cnccc12,,48 h,> 127 µM
CCN(CC)c1ccc2c(c1)[O][Pt-2]1([Cl])[N+](=C2)c2ccccc2[NH+]1c1ccccc1 (stereo not drawn),"cell viability, MTT",48 h,14.8 ± 0.18 µM
O=C(/C=C(O)/C=C/c1cccs1)/C=C/c1cccs1,"cell growth or viability, SRB",72 h,66 µM
CCCCSc1nc(N)c2c(F)c(C#N)c(F)c(Cl)c2n1,"cell growth or viability, MTT",96 h,69.5 µM
"C=C1C(=O)[C@@]23CC[C@@H]4[C@](C)(COC(C)=O)CCC[C@@]4(C)[C@@H]2[C@@H](O)C[C@@H]1C3 (single isomer, unassigned)","cell growth or viability, MTT",,15.5 µM
C=CC(OC(C)=O)c1ccc(OC)cc1 (stereo not drawn),MTT,24 h,> 50 µM
COCCSc1nc(N)c2c(F)c(C#N)c(F)c(Cl)c2n1,"cell growth or viability, MTT",96 h,34 µM
Cc1c(C(=O)/C=C/c2ccco2)nnn1-c1c(Cl)cc(Cl)cc1Cl,"cell growth or viability, MTT",,17.6 µM
C[C@@H]1C(=O)CC[C@@H]2[C@]1(C)CC[C@H]1[C@@]2(C)CC[C@@]2(C)[C@@H]3CC(C)(C)CC[C@]3(C)CC[C@]12C,"cell growth or viability, SRB",,> 100 µM
CSC(=NN=C(C)c1ccc(S(=O)(=O)N2CCC(C)CC2)cc1)N(C)C,"cell growth or viability, MTT",,3.33 µM
CC(=O)[O-].O.O.[O-]c1ccc(Br)cc1C=NCCN1CCOCC1.[Zn+2],"cell viability, MTT",72 h,33.5 µg/mL
CC(C)Cn1cc(-c2ccnc(Nc3ccc(C(=O)Nc4ccccc4N)cc3)n2)nn1,"cell growth or viability, SRB",72 h,5.12 µM
COc1cc(/C=C/C(=O)/C=C/c2cn(-c3ccccc3)nc2C(=O)O)cc(OC)c1OC,cell growth,72 h,> 25 µM
CCOC(=O)c1ccc(-n2c(N)c(C#N)c(SC)c(C#N)c2=O)cc1,"cell growth or viability, MTT",24 h,34.9 µM
CCC1=C(CC)C2=[N+]3C1=Cc1c(CC)c(CC)c4[n]1[Ir-3]31([C]#[N+]c3ccc(OC)cc3)([C]#[N+]c3ccc(OC)cc3)[n]3c(c(CC)c(CC)c3=CC3=[N+]1C(=C4)C(CC)=C3CC)=C2.F[B-](F)(F)F,"cell growth or viability, MTT",72 h,> 100 µM
Fc1ccc2[nH]c(-c3cc4ccccc4nc3Cl)nc2c1,"cell growth or viability, MTT",48 h,> 100 µM
Cc1cc(C#N)cc(C)c1Oc1cc(Nc2ccc(C#N)cc2)nc2ccncc12,,48 h,> 128 µM
Clc1nc2cc3c(cc2cc1-c1nc2cc(Br)ccc2[nH]1)OCO3,"cell growth or viability, MTT",48 h,> 100 µM
COc1ccc(/C=C/C(=O)/C=C/c2cn(-c3ccccc3)nc2C(=O)O)cc1O,cell growth,72 h,> 25 µM
Cc1ccc2nc(Cl)c(-c3nc4ccccc4[nH]3)cc2c1,"cell growth or viability, MTT",48 h,> 100 µM
Cc1c(C(=O)NNC(=O)Nc2ccc([N+](=O)[O-])cc2)nnn1Cc1nc2ccccc2[nH]1,"cell growth or viability, MTT",48 h,25 µM
CC1(C)CC[C@]2(C(=O)O)CC[C@]3(C)C(=CC[C@@H]4[C@@]5(C)CC[C@H](O[C@@H]6OC[C@H](O)[C@H](O)[C@H]6O)[C@@](C)(CO)[C@@H]5CC[C@]43C)[C@@H]2C1,"NF-κB activity, inhibitor, luciferase",TNF-stimulated,7.5 µM
CCCc1cc(O)nc(SCCOC(=O)[C@]2(C)CCC[C@]3(C)c4ccc(C(C)C)cc4CCC23)n1 (stereo partly drawn),"cell growth or viability, MTT",48 h,10.4 µM
COc1ccc(-c2cc(-c3nnn(-c4ccc(Br)cc4)c3C)nc(N)c2C#N)cc1,"cell growth or viability, MTT",,2.34 µg/mL
N#Cc1cccc(-c2ccc(=O)n(Cc3cccc(-c4ncc(OCC5CCN(CC(=O)NCCOCCOCCOCCNc6ccc7c(c6)C(=O)N(C6CCC(=O)NC6=O)C7=O)CC5)cn4)c3)n2)c1 (stereo not drawn),"cell growth or viability, CCK-8",72 h,0.672 µM
COC(=O)CNc1cc(C[S+]([O-])c2ccc3ccccc3c2)ccc1OC (stereo not drawn),"cell growth or viability, MTS",48 h,4.29 µM
O=C(NN=Cc1ccc(O)cc1)Nc1cc2c(Nc3ccc(F)c(Cl)c3)ncnc2cc1OC1CCOC1 (stereo not drawn),"cell growth or viability, MTT",72 h,0.07 µM
C[C@]12CC[C@@H]3c4ccc(O)cc4CC[C@H]3[C@@H]1CC[C@@]2(O)c1cn(CC(=O)c2cccc(F)c2)nn1,"cell growth or viability, resazurin",72 h,28.2 µM
CC(=O)OC[C@H]1O[C@@H](Sc2nnc(-c3cc4ccccc4[nH]3)n2-c2ccc(Cl)cc2)[C@H](OC(C)=O)[C@@H](OC(C)=O)[C@@H]1OC(C)=O,"cell growth or viability, MTT",,21.6 µM
O=C(CCCCCCN1CCN(c2ccc(Nc3ncc(F)c(-c4cn(C5CCCC5)nn4)n3)cc2)CC1)NO,"cell growth or viability, SRB",72 h,2.66 µM
Brc1ccc2nc3c4ccc[n+]5c4c4c(ccc[n+]4[Ru-4]546([n+]5ccccc5-c5cccc[n+]54)[n+]4ccccc4-c4cccc[n+]46)c3nc2c1.[O-][Cl+3]([O-])([O-])O.[O-][Cl+3]([O-])([O-])O,"cell growth or viability, MTT",72 h,> 100 µM

# For quick reference, copied from above:
Compound,test,conditions,IC50
Fc1ccc2[nH]c(-c3cc4ccccc4nc3Cl)nc2c1,"cell growth or viability, MTT",48 h,> 100 µM
Cc1cc(C#N)cc(C)c1Oc1cc(Nc2ccc(C#N)cc2)nc2ccncc12,,48 h,> 128 µM
Clc1nc2cc3c(cc2cc1-c1nc2cc(Br)ccc2[nH]1)OCO3,"cell growth or viability, MTT",48 h,> 100 µM
COc1ccc(/C=C/C(=O)/C=C/c2cn(-c3ccccc3)nc2C(=O)O)cc1O,cell growth,72 h,> 25 µM
Cc1ccc2nc(Cl)c(-c3nc4ccccc4[nH]3)cc2c1,"cell growth or viability, MTT",48 h,> 100 µM
Cc1c(C(=O)NNC(=O)Nc2ccc([N+](=O)[O-])cc2)nnn1Cc1nc2ccccc2[nH]1,"cell growth or viability, MTT",48 h,25 µM
CC1(C)CC[C@]2(C(=O)O)CC[C@]3(C)C(=CC[C@@H]4[C@@]5(C)CC[C@H](O[C@@H]6OC[C@H](O)[C@H](O)[C@H]6O)[C@@](C)(CO)[C@@H]5CC[C@]43C)[C@@H]2C1,"NF-κB activity, inhibitor, luciferase",TNF-stimulated,7.5 µM
CCCc1cc(O)nc(SCCOC(=O)[C@]2(C)CCC[C@]3(C)c4ccc(C(C)C)cc4CCC23)n1 (stereo partly drawn),"cell growth or viability, MTT",48 h,10.4 µM
COc1ccc(-c2cc(-c3nnn(-c4ccc(Br)cc4)c3C)nc(N)c2C#N)cc1,"cell growth or viability, MTT",,2.34 µg/mL
N#Cc1cccc(-c2ccc(=O)n(Cc3cccc(-c4ncc(OCC5CCN(CC(=O)NCCOCCOCCOCCNc6ccc7c(c6)C(=O)N(C6CCC(=O)NC6=O)C7=O)CC5)cn4)c3)n2)c1 (stereo not drawn),"cell growth or viability, CCK-8",72 h,0.672 µM
